Measured values collected from several papers.
Each line is one published result; not all experiments were run side by side. ± gives the spread as reported.
ABCB1: ATP-dependent translocase ABCB1 (ABCB1, Homo sapiens, UniProt P08183)
Sequence of UniProt P08183 (whole entry, looked up): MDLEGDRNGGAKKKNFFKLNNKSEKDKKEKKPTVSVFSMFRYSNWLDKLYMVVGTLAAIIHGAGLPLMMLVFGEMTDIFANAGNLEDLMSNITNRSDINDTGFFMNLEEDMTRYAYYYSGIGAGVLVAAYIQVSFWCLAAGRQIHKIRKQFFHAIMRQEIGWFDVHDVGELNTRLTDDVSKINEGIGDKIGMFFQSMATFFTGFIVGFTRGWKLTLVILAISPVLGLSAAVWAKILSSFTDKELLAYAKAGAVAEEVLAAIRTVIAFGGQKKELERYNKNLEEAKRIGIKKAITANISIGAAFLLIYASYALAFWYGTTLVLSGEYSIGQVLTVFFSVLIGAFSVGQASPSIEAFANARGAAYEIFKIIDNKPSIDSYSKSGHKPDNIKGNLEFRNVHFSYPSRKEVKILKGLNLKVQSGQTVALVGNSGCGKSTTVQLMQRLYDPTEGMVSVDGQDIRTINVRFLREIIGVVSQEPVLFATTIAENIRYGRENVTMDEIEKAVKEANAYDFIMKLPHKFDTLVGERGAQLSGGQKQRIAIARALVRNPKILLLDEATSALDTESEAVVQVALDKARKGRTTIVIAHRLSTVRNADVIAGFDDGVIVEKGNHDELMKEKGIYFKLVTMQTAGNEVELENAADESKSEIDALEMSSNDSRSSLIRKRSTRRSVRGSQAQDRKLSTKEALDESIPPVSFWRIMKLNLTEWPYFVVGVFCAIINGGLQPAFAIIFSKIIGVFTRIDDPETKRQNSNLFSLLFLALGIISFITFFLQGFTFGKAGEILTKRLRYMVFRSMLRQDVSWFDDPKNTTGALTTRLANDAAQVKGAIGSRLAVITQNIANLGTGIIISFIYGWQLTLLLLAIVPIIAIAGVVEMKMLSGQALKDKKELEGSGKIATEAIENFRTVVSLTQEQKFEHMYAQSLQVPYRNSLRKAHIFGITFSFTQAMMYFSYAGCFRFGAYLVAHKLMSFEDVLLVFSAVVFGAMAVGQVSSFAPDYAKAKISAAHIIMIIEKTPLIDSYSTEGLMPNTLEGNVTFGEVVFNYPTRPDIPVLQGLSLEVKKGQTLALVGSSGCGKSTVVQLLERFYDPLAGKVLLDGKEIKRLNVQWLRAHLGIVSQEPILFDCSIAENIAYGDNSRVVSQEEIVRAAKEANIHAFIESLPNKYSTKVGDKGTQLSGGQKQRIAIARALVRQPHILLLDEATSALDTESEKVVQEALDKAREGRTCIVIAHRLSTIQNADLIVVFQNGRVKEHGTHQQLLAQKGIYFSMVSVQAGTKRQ
ALB: Albumin (ALB, Homo sapiens, UniProt P02768)
Nuclear receptor subfamily 1 group I member 3: Nuclear receptor subfamily 1 group I member 3 (Homo sapiens, UniProt Q14994)
Sequence of UniProt Q14994 (whole entry, looked up): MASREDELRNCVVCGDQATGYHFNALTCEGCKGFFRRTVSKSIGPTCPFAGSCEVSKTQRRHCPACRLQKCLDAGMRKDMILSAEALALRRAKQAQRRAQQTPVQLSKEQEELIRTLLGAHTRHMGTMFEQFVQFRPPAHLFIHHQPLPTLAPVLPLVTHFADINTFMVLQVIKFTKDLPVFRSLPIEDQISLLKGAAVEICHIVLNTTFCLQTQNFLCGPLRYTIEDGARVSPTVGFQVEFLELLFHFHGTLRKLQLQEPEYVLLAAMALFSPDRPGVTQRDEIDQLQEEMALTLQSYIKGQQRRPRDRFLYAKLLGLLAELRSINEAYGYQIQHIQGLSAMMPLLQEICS
Sequence of UniProt P10635 (whole entry, looked up): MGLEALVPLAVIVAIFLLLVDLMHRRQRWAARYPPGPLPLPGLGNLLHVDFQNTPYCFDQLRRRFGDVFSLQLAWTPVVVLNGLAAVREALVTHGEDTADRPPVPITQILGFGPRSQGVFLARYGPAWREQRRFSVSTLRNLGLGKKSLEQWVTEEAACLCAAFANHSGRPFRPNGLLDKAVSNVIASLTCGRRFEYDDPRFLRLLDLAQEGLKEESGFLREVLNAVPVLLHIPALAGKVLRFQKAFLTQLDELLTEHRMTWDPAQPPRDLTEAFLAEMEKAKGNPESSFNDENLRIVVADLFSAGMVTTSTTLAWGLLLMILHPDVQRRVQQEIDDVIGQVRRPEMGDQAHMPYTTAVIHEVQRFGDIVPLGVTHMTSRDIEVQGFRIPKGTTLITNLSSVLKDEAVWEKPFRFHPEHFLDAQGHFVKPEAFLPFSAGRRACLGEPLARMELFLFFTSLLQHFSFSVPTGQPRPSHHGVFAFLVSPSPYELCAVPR
Sequence of UniProt P11509 (whole entry, looked up): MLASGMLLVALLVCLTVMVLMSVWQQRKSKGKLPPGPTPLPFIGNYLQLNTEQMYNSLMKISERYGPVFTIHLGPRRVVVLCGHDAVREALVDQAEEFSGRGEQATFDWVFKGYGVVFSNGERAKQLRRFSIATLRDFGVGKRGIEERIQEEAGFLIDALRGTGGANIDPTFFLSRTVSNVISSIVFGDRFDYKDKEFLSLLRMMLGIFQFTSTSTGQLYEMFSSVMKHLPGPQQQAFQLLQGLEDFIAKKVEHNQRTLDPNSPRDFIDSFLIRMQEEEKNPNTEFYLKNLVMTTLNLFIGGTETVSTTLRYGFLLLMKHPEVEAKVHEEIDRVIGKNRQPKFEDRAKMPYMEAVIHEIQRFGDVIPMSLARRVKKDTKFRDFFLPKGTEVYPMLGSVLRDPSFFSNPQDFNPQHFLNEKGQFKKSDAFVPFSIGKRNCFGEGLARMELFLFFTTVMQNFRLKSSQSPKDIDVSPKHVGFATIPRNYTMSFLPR
Sequence of UniProt P05177 (whole entry, looked up): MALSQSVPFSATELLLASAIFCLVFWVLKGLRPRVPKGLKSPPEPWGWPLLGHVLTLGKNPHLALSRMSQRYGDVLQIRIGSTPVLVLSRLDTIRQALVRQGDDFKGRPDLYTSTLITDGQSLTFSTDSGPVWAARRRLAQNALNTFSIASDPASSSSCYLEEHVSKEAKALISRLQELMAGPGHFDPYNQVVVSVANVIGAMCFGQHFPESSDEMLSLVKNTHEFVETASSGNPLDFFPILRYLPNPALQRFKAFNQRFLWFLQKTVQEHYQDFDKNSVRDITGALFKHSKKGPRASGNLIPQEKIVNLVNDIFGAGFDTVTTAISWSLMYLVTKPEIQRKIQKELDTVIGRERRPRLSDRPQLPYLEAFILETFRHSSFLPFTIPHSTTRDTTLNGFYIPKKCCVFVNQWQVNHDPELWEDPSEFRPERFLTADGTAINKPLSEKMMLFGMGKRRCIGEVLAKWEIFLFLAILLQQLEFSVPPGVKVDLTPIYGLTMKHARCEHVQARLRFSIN
Sequence of UniProt O43704 (whole entry, looked up): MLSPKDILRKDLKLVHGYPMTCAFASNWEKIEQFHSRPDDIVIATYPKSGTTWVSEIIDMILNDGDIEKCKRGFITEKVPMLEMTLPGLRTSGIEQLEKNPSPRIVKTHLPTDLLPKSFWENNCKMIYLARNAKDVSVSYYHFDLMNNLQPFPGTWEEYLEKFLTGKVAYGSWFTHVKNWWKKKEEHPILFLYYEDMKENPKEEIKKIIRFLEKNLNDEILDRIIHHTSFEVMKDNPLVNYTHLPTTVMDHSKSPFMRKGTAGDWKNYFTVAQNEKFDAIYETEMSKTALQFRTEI

Molecule | target | assay | system | conditions | scale | quantity | result
COc1cccc(-c2cc3nc(-c4ccco4)cc(N4CCN(C(C)=O)CC4)n3n2)c1 | ABCB1 | JC-1 efflux, inhibitor | Jurkat-DNR | – | – | IC50 | 1.64 µM
CC[C@H](C)[C@H](NC(=O)[C@H](Cc1ccc(O)cc1)NC(=O)[C@@H](NC(=O)[C@@H](N)CCCN=C(N)N)C(C)C)C(=O)N[C@@H](Cc1c[nH]cn1)C(=O)N1CCC[C@H]1C(=O)N[C@@H](Cc1ccccc1)C(=O)O | trypsin | substrate, LC-MS | – | 20 µM, 12 h, pH 7.4, with: Aβ1-28 10 µM, MINP(A) and MINP(β15-28) | – | peptide hydrolysed | 8.8 ± 2.1%
COc1c2ccoc2c(OC)c2oc(=O)ccc12 | Cytochrome P450 1A2 (CYP1A2, Homo sapiens, UniProt P05177) | – | recombinant microsomes | 8 µM, 8 min preincubation, before dialysis, with: methoxyresorufin | reference: uninhibited enzyme | remaining activity | 18 ± 3%
CCN(CC)C(=S)S | mitochondrial cytochrome P450 rat | inhibitor | – | 50 µM, 60 min, pH 7.4 | – | inhibition | 73%
Cc1ccc(Nc2nccc(N(C)c3ccc4c(C)n(C)nc4c3)n2)cc1S(N)(=O)=O | ABCB1 | bidirectional transport | MDCK-MDR1 | 5 µM, 240 min, with: canertinib 5 µM | – | Papp A-B | 3.3 ± 0.1 ×10⁻⁶ cm/s
liraglutide | ALB | equilibrium dialysis | Krebs-Henseleit buffer | 10 nM, pH 7.4, with: HSA 50 mg/mL | – | bound fraction | 99%
CCOC(=O)c1csc([C@@H](NC(=O)c2csc([C@@H](N)C(C)C)n2)C(C)C)n1 | ABCB1 | calcein-AM efflux, flow cytometry | HeLa transduced with BacMam ABCB1 | 20 µM, 10 min, 5% FBS, with: calcein-AM 0.5 µM | reference: 1 µM tariquidar | inhibition | 55%
O=C(c1ccoc1)N1CCN(c2cc(-c3cccnc3)nc3cc(-c4cccc(Cl)c4)nn23)CC1 | ABCB1 | JC-1 efflux, inhibitor | Jurkat-DNR | – | – | IC50 | 0.77 ± 0.28 µM
COc1ccc([C@@H](C)NC(=O)c2csc([C@@H](NC(=O)c3csc([C@@H](NC(=O)OC(C)(C)C)C(C)C)n3)C(C)C)n2)cc1 | ABCB1 | efflux transport, inhibitor, flow cytometry | HeLa, BacMam P-gp transduced | 10 µM, 45 min, with: Bodipy-FL-prazosin | reference: 1 µM tariquidar | inhibition | 88%
Cc1coc2c1CC[C@@H](C)C2 | Cytochrome P450 2A6 (CYP2A6, Homo sapiens, UniProt P11509) | coumarin 7-hydroxylation, inactivator | – | 20 µM, 10 min, pH 7.4, 30 °C, before spin column, with: NADPH 1 mM | reference: no NADPH control | remaining activity | 8 ± 5%
NBD-C12 fatty acid | ALB | binding, switchSENSE | – | 1% DMSO | – | Kd | 27.5 µM
Cc1nc2c([nH]1)c(=O)n(C)c(=O)n2Cc1ccco1 | mitochondrial cytochrome P450 rat | inhibitor | – | 20 µM, 60 min, pH 7.4 | – | inhibition | 64%
CC1=N[C@]2(C(=O)CO)[C@@H](C[C@H]3[C@@H]4C[C@@H](O)C5=CC(=O)C=C[C@]5(C)[C@H]4[C@@H](O)C[C@@]32C)O1 | Cytochrome P450 2D6 (CYP2D6, Homo sapiens, UniProt P10635) | – | pooled human liver microsomes | 30 min preincubation, with: dextromethorphan probe and NADPH | – | IC50 | > 50 µM
COc1cccc(-c2cc3nc(-c4ccco4)cc(N4CCN(C(=O)c5ccoc5)CC4)n3n2)c1 | ABCB1 | JC-1 efflux, inhibitor | Jurkat-DNR | – | – | IC50 | 7.4 µM
CC(C)[C@H](NC(=O)OC(C)(C)C)c1nc(C(=O)N[C@H](c2nc(C(=O)N[C@H](c3nc(C(=O)O)cs3)C(C)C)cs2)C(C)C)cs1 | ABCB1 | efflux transport, inhibitor, flow cytometry | HeLa, transduced with BacMam P-gp | 10 µM, 45 min, 5% FBS, with: Bodipy-FL-prazosin | reference: tariquidar 1 µM | inhibition | 10%
CC(=O)N1CCN(c2cc(-c3ccco3)nc3cc(-c4ccccc4)nn23)CC1 | ABCB1 | JC-1 efflux, inhibitor | Jurkat-DNR | – | – | IC50 | 3.64 µM
CC(C)(C)NC(=O)[C@@H]1C[C@@H]2CCCC[C@@H]2CN1C[C@@H](O)[C@H](Cc1ccccc1)NC(=O)[C@H](CC(N)=O)NC(=O)c1ccc2ccccc2n1 | complex I | oxygen consumption acceleration | BALB/cByJ female mouse liver mitochondria | 60 min, with: malate + glutamate | – | EC20 | 30.4 µM
COc1ccc([C@@H]2CC(=O)c3c(O)cc(O)cc3O2)cc1O | SULT1B1 (Homo sapiens, UniProt O43704) | substrate | – | 10 µM | – | specific activity | 3.28 ± 0.96 nmol/min/mg
CCOC(=O)c1csc([C@@H](N)C(C)C)n1 | ABCB1 | calcein-AM efflux, flow cytometry | HeLa transduced with BacMam ABCB1 | 20 µM, 10 min, 5% FBS, with: calcein-AM 0.5 µM | reference: 1 µM tariquidar | inhibition | < 5%
O=C(c1ccoc1)N1CCN(c2cc(-c3ccccc3)nc3cc(-c4ccc(Br)cc4)nn23)CC1 | ABCB1 | JC-1 efflux, inhibitor | Jurkat-DNR | – | – | IC50 | 1.31 ± 0.35 µM
CC[C@H](C)[C@H](NC(=O)[C@H](Cc1ccccc1)NC(=O)[C@H](CCC(=O)O)NC(=O)[C@H](CCCCNC(=O)COCCOCCNC(=O)COCCOCCNC(=O)CC[C@H](NC(=O)CCCCCCCCCCCCCCCCC(=O)O)C(=O)O)NC(=O)[C@H](C)NC(=O)[C@H](C)NC(=O)[C@H](CCC(N)=O)NC(=O)CNC(=O)[C@H](CCC(=O)O)NC(=O)[C@H](CC(C)C)NC(=O)[C@H](Cc1ccc(O)cc1)NC(=O)[C@H](CO)NC(=O)[C@H](CO)NC(=O)[C@@H](NC(=O)[C@H](CC(=O)O)NC(=O)[C@H](CO)NC(=O)[C@@H](NC(=O)[C@H](Cc1ccccc1)NC(=O)[C@@H](NC(=O)CNC(=O)[C@H](CCC(=O)O)NC(=O)C(C)(C)NC(=O)[C@@H](N)Cc1cnc[nH]1)[C@@H](C)O)[C@@H](C)O)C(C)C)C(=O)N[C@@H](C)C(=O)N[C@@H](Cc1c[nH]c2ccccc12)C(=O)N[C@@H](CC(C)C)C(=O)N[C@H](C(=O)N[C@@H](CCCNC(=N)N)C(=O)NCC(=O)N[C@@H](CCCNC(=N)N)C(=O)NCC(=O)O)C(C)C | ALB | binding | – | 14.8 µM, 2 h | – | unbound fraction | 4.6%
O=C(NCCCN1CCOCC1)c1cnn2c(-c3ccccc3)cc(-c3ccccc3)nc12 | ABCB1 | JC-1 efflux, inhibitor | Jurkat-DNR | – | – | IC50 | 4.41 µM
Clc1cccc(-c2nc3sccn3c2CNCCc2ccc(Cl)c(Cl)c2)c1 | Nuclear receptor subfamily 1 group I member 3 | reporter gene, agonist | HepG2-CYP2B6 cells | unit not given | reference: CITCO | Emax | 3.2
O=C(c1ccsc1)N1CCN(c2cc(-c3ccccc3)nc3cc(-c4cccc(Cl)c4)nn23)CC1 | ABCB1 | JC-1 efflux, inhibitor | Jurkat-DNR | – | – | IC50 | 3.97 ± 0.8 µM
C=CC(=O)N1C[C@H](Nc2ncnc3[nH]ccc23)CC[C@@H]1C | CYP3A | – | human, plasma | oral, 30 mg, 5 days, with: itraconazole 200 mg once daily | reference: with over without itraconazole | AUC(0-inf) ratio | 115%
O=C(C1CCCCC1)N1CCN(c2cc(-c3ccccc3)nc3cc(-c4cccc(Cl)c4)nn23)CC1 | ABCB1 | JC-1 efflux, inhibitor | Jurkat-DNR | – | – | IC50 | 3.31 ± 1.86 µM
c1ccc2c(c1)CC(NCc1c(-c3ccc4ccccc4c3)nc3occn13)C2 | Nuclear receptor subfamily 1 group I member 3 | reporter gene, agonist | HepG2-CYP2B6 cells | unit not given | reference: CITCO | Emax | 4.9

Excerpt of the above:
Molecule | target | assay | system | conditions | scale | quantity | result
liraglutide | ALB | equilibrium dialysis | Krebs-Henseleit buffer | 10 nM, pH 7.4, with: HSA 50 mg/mL | – | bound fraction | 99%
CCOC(=O)c1csc([C@@H](NC(=O)c2csc([C@@H](N)C(C)C)n2)C(C)C)n1 | ABCB1 | calcein-AM efflux, flow cytometry | HeLa transduced with BacMam ABCB1 | 20 µM, 10 min, 5% FBS, with: calcein-AM 0.5 µM | reference: 1 µM tariquidar | inhibition | 55%
